Published values of several laboratories.
Compare with care: the assays were run in different laboratories. Numbers after ± are the reported error.

| Structure (SMILES) | test | test system | conditions | scale | endpoint | result |
| --- | --- | --- | --- | --- | --- | --- |
| N=C(N)NCCC[C@H](NC(=O)[C@H](CCCNC(=N)N)NC(=O)[C@H](CCCNC(=N)N)NC(=O)[C@H](CCC(N)=O)NC(=O)[C@H](CCCNC(=N)N)NC(=O)[C@H](CCCNC(=N)N)NC(=O)[C@H](CCCCN)NC(=O)[C@H](CCCCN)NC(=O)[C@H](CCCNC(=N)N)NC(=O)CNC(=O)[C@H](Cc1ccc(O)cc1)NC(=O)[C@H](Cc1ccccc1)NC(=O)[C@H](Cc1ccccc1)NC(=O)[C@H](Cc1ccccc1)NC(=O)Cc1ccc2ccccc2c1)C(=O)O | – | C57BL/6 mice | intraperitoneal, 20 mg/kg, 48 h | direction not given | health score | 5 |
| CCCC[C@H]1C(=O)N(C)[C@@H](CCCC)C(=O)N[C@@H](CCCNC(=O)CN2CCN(CC(=O)O)CCN(CC(=O)O)CCN(CC(=O)O)CC2)C(=O)N[C@H](C(=O)NCC(N)=O)CSCC(=O)N[C@@H](Cc2ccc(O)cc2)C(=O)N(C)[C@@H](C)C(=O)N[C@@H](CC(N)=O)C(=O)N2CCC[C@H]2C(=O)N[C@@H](Cc2c[nH]cn2)C(=O)N[C@@H](CC(C)C)C(=O)N(C)CC(=O)N[C@@H](Cc2c[nH]c3ccccc23)C(=O)N[C@@H](CO)C(=O)N[C@@H](Cc2c[nH]c3ccccc23)C(=O)N1C [gallium-68 labelled] | – | NOD/SCID mice with CHO-hPD-L1 xenograft, kidney | 60 min post injection | – | tissue uptake | 40.8 ± 3.14 %ID/g |
| N#[11C]c1ccc(-c2csc(NN=C3CCCC3)n2)cc1 | – | C57BL/6 mouse, male | intravenous, 3 MBq, 15 min | – | uptake in large intestine with contents | 1.61 ± 0.11 %ID/g |
| CC[C@H](C)[C@H](NC(=O)[C@H](CCCCN)NC(=O)CNC(=O)[C@H](CC(C)C)NC(=O)[C@H](Cc1ccccc1)NC(=O)[C@H](CCCCN)NC(=O)[C@H](CO)NC(=O)[C@H](Cc1ccccc1)NC(=O)[C@H](Cc1c[nH]c2ccccc12)NC(=O)[C@H](CCC(N)=O)NC(=O)[C@@H](NC(=O)[C@H](Cc1ccccc1)NC(=O)CCCCCNC(=O)CN1CCN(CC(=O)O)CCN(CC(=O)O)CCN(CC(=O)O)CC1)C(C)C)C(=O)N[C@@H](CCC(=O)O)C(=O)N1CCC[C@H]1C(=O)N[C@@H](CC(=O)O)C(=O)N[C@H](C(=O)N[C@@H](CO)C(=O)N[C@@H](CCC(N)=O)C(=O)N[C@H](C(=O)N[C@@H](CCC(N)=O)C(=O)N[C@@H](CC(=O)O)C(=O)N1CCC[C@H]1C(=O)N[C@@H](CC(N)=O)C(=O)N[C@@H](CC(=O)O)C(=O)N[C@@H](CCC(N)=O)C(=O)N[C@@H](Cc1ccc(O)cc1)C(=O)N[C@@H](CCC(=O)O)C(=O)N1CCC[C@H]1C(=O)N[C@@H](Cc1ccccc1)C(=O)O)C(C)C)C(C)C [copper-64 labelled] | dynamic PET | mouse both sexes, CT26 tumour, untreated, tumour | intravenous, 100 µCi/mouse, 1110 s | – | SUVmean | 0.7 SUV |
| CSCC[C@H](NC(=O)CNC(=O)[C@H](CCCCN)NC(=O)[C@H](CC(C)C)NC(=O)[C@@H]1CCCN1C(=O)[C@H](CO)NC(=O)[C@H](Cc1c[nH]cn1)NC(=O)[C@H](Cc1c[nH]c2ccccc12)NC(=O)[C@H](CCCNC(=N)N)NC(=O)[C@H](CC(C)C)NC(=O)[C@H](CCCNC(=N)N)NC(=O)[C@H](Cc1c[nH]c2ccccc12)NC(=O)[C@H](CS)NC(=O)CCCCCNC(=O)CN1CCN(CC(=O)O)CCN(CC(=O)O)CCN(CC(=O)O)CC1)C(=O)O [copper-64 labelled] | – | C57BL/6J mice, B16-F10 tumour | intravenous, 1.85 MBq, 18 h | baseline: tumour over muscle | tumour-to-muscle ratio | 9.94 |
| CSCC[C@@H]1NC(=O)[C@H](C(C)C)NC(=O)[C@H](CCCNC(=N)N)NC(=O)[C@@H]2CCCN2C(=O)CNC(=O)[C@@H](NC(=O)CNC(=O)[C@H](CO)NC(=O)CNC(=O)[C@H](CO)NC(=S)Nc2ccc(C[C@H]3CN(CC(=O)O)CCN(CC(=O)O)CCN3CC(=O)O)cc2)CSSC[C@@H](C(N)=O)NC(=O)[C@@H]2CCCN2C(=O)CNC(=O)[C@H](CCC(=O)O)NC(=O)[C@H](CC(=O)O)NC(=O)[C@H](CC(=O)O)NC(=O)CNC(=O)[C@H](CC(C)C)NC(=O)[C@H](Cc2c[nH]cn2)NC(=O)[C@H](CC(C)C)NC(=O)CNC(=O)[C@H](Cc2c[nH]cn2)NC1=O [copper-64 labelled] | dynamic PET | CD rat, myocardial infarction model, fibrotic infarct myocardium | intravenous, 18.5 MBq, 5 to 60 min | – | half-life | 21.5 ± 1.4 min |
| O=C1CC[C@H](N2Cc3cc(N4CCNCC4)ccc3C2=O)C(=O)N1 | radiolabelled compound | female SD rats | oral, 20 mg/kg, 0-168 h | baseline: dose | faecal excretion | 21.1% |
| O=C1NC2(CC2)COc2ncc(F)cc2[C@H]2COCCN2c2ccn3ncc1c3n2 | – | Sprague-Dawley rat, female, serum | oral, 2.5 mg/kg/day, 4 weeks daily, end of treatment | – | creatinine | 35.3 ± 5 µmol/L |
| C=CC(=O)Nc1cccc(Cn2ncc3cnc(Nc4cnn(CCOC)c4)nc32)c1 | – | Sprague-Dawley rat male, blood | oral, 180 mg/kg, day 28, 28-day subacute toxicity | – | MCHC | 374 ± 16.4 g/L |
| CC(C)[C@@H]1NC(=O)CNC(=O)[C@H](CC(N)=O)NC(=O)[C@H](CCCNC(=N)N)NC(=O)[C@H](Cc2ccc(O)cc2)NC(=O)[C@H](C(C)C)NC(=O)[C@@H](NC(=O)[C@@H](NC(=O)[C@H](CC(N)=O)NC(=O)[C@H](Cc2c[nH]c3ccccc23)NC(=O)[C@H](C)NC(=O)[C@H](Cc2ccccc2)NC(=O)CNC(=O)[C@H](CCCCN)NC(=O)[C@H](Cc2ccccc2)NC(=O)[C@H](Cc2ccccc2)NC(=O)[C@H](CCCCN)NC(=O)OCC2c3ccccc3-c3ccccc32)C(C)C)CSSC[C@@H](C(=O)N[C@@H](Cc2c[nH]cn2)C(=O)N[C@@H](CCCNC(=N)N)C(=O)N[C@@H](CCCNC(=N)N)C(=O)N[C@@H](C)C(=O)N[C@@H](CC(N)=O)C(N)=O)NC(=O)[C@H](C(C)C)NC(=O)[C@H](CCCNC(=N)N)NC1=O | – | ICR mouse | ip, 10 mg/kg | direction not given | spasm score | 0 |
| CN1Cc2cc(Cl)ccc2-n2c(nnc2C2CCN(c3cccc([18F])n3)CC2)C1 | – | C57BL/6 mouse male, urinary bladder | intravenous, 3.7 MBq, 60 min | – | tissue uptake | 17.4 ± 9.22 %ID/g |
| C#Cc1c(F)ccc2cc(O)cc(-c3ncc4c(N5CC6CCC(C5)N6C(=O)OC(OC(=O)CCC)C5CCCCC5)nc(OC[C@@]56CCCN5C[C@H](F)C6)nc4c3F)c12 (stereo partly shown) | chemical stability | simulated intestinal fluid | 1 µM, 30 min | – | compound remaining | 103% |
| CC(=O)NCCCC[C@@H]1NC(=O)[C@H](Cc2c[nH]c3c(C)cccc23)NC(=O)[C@H]([C@@H](C)O)NC(=O)[C@H](CC(N)=O)NC(=O)[C@@H](NC(C)=O)C(C)(C)SSC(C)(C)[C@@H](C(=O)N[C@@H](Cc2ccc(OCCN)cc2)C(=O)N[C@@H](Cc2ccc3ccccc3c2)C(=O)NC2(C(=O)N[C@@H](CCC(=O)O)C(=O)N[C@@H](CC(N)=O)C(=O)N[C@@H](Cc3cccnc3)C(=O)N(C)CC(N)=O)CCOCC2)NC1=O | equilibrium dialysis | mouse, plasma | 0.1 µM | – | plasma protein binding | 53.4 ± 2.7% |

Repeated from above:
| Structure (SMILES) | test | test system | conditions | scale | endpoint | result |
| --- | --- | --- | --- | --- | --- | --- |
| CC(C)[C@@H]1NC(=O)CNC(=O)[C@H](CC(N)=O)NC(=O)[C@H](CCCNC(=N)N)NC(=O)[C@H](Cc2ccc(O)cc2)NC(=O)[C@H](C(C)C)NC(=O)[C@@H](NC(=O)[C@@H](NC(=O)[C@H](CC(N)=O)NC(=O)[C@H](Cc2c[nH]c3ccccc23)NC(=O)[C@H](C)NC(=O)[C@H](Cc2ccccc2)NC(=O)CNC(=O)[C@H](CCCCN)NC(=O)[C@H](Cc2ccccc2)NC(=O)[C@H](Cc2ccccc2)NC(=O)[C@H](CCCCN)NC(=O)OCC2c3ccccc3-c3ccccc32)C(C)C)CSSC[C@@H](C(=O)N[C@@H](Cc2c[nH]cn2)C(=O)N[C@@H](CCCNC(=N)N)C(=O)N[C@@H](CCCNC(=N)N)C(=O)N[C@@H](C)C(=O)N[C@@H](CC(N)=O)C(N)=O)NC(=O)[C@H](C(C)C)NC(=O)[C@H](CCCNC(=N)N)NC1=O | – | ICR mouse | ip, 10 mg/kg | direction not given | spasm score | 0 |
